Assay results from different studies.
Numbered parts are unrelated; each lists some results of a single study. Changes are numbered by the printed parent chain.

Study 1 — method: protein binding microarray; molecule type: double-stranded DNA, one strand shown; medium: in vitro; concentration: not given; baseline: not given; direction: higher = stronger binding
Target: Histone acetyltransferase KAT6A, winged helix 1, GST fusion (KAT6A, Homo sapiens, UniProt Q92794, residues 1-85)
Setting: 8-mer, flanks averaged, mean of 2 arrays, mostly near background
Target sequence (chain): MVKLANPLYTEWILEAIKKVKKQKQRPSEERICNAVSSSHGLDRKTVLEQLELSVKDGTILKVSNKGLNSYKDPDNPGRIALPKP
Strand	E-score
AGAATCCA	-0.2
GGTAGCAC	0.0305
GAGAACAC	-0.152
AACGATCG	-0.0375
ATATGAGG	-0.182
AATAAGCC	-0.00093
CCCTTATC	-0.129
TCTTAAGA	-0.242
TCAGAGGA	-0.1
ATGCTCCA	-0.151
CAGTTAGC	0.0167
GTTAATTA	-0.0353
GACCGCAC	0.192
ATAGGAGA	-0.207
ATAGAAAT	-0.073
TAATGCTA	0.000415
CCGATGTC	-0.0431
GATTACTA	-0.0301
ACAGGTAT	-0.0377
AGGTAGAT	-0.0902
GGTCCAGA	-0.115
ATCACAAA	-0.291
ATATAGAG	0.0307
GAACTGGC	0.00368
GCATCAAC	0.0878

Study 2 — method: RNA Bind-n-Seq; molecule type: RNA; medium: in vitro; concentration: 365 nM; baseline: no-protein control; direction: higher = stronger binding
Target: RNA binding protein fox-1 homolog 2, RRM domain, GST-SBP tag (RBFOX2, Homo sapiens, UniProt O43251-10, residues 100-194)
Setting: natural RNA segment, single round, ends assumed
Constant ends, left off below: GGGAGUUCUACAGUCCGACGAUC … UGGAAUUCUCGGGUGCCAA
Construct (chain): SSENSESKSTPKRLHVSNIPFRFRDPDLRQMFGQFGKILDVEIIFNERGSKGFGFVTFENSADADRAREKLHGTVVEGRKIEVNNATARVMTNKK
Strand	RBNS enrichment (R)
UGUUUUUCUUGUAAAUGUGUUGGACAAAUGUGAAGAUGCGUUGUAGUUUACCCAUAUGCCCACAUUUAGUCUCUUUAUUCCUAGUUGGUGAGAAACCUGUAUCUUUCUAU	0.524
UUCUUCUAAAGGGCAUUGGCCUCUCAGGUGAACUUGCAGAGACUUGGCCAAAUUUGCUUCCUCUUUCCCCUGGGGCAGUUGCCUCAUAUGGGGUCAUUACAAGACCCCUU	0.329
CUUCUCUUGGCCACCCUGGCCCUGACCGGGCCAGCACGUGCACACUGGCCUCUUUUCAUUUCACUAGUGGCCGAGACACCCUCUCUGGCAUUUAUCACUGUUGGCCGGUG	0.99
CGGACAGCCUAGCUGGGGGCUCCCCCAUAUUCCCAGGCCCAGAAGACAGACCCACAGCCCUGCCCUUGUCUCUGAGGCUGAAGACCCCCUGACUCCCAUGCUGUGCUUGC	2.8
ACACUUGCAAAGACAGGGCUCUGACUCUGAUCCCUCCCAGGGAGCCUCCGACACCCAUCCCACUCCCAACCACCAAGACCCUGGGUUAGGGAAGAAGUUGUAUCUUAAGU	0.443
CAAUACCAAGUAUAGCCUAUGGCAGAAAAAAUGUCUGUAAAUAUGUUUUUAAAGGUGGAUUUUGUUUAAAAAAUCUUAAUGAAUGAGUCUGUUGUGUGUCAUGCCAGUGA	0.865
GCUAGAGGGCGCUCUAGGACAGCGUCGGAUCCUGUCUCUGGCAACCCCUUGCAAGCCCACGGGGCUUCCUGGGUGGGAGGAAGAGGGUUCAGGCACUUCCCACCACCUUU	0.269
UUUUGCAGAAAUAAGUGUUUGUAAGAAGUUUUACUAUAGGAAAGUCUACUUUUUUAAGCAGCAAAGUGUUCUGAGGAGUUGGUGUGUGAUGCCAAAGAGCUCAACGGGGC	0.83
CAGGCUUUGUGUGUUGCAUAUUUAAUAUUUCUACUACCACCGUAUGUCAACUGGGUAAAGCCUUCCAGAGCUCUCUAAAUACCUGAAAGACUUAAGCCUUUUUUUAAGUA	0.452
UGUUAAAAAUUGUACUGAUGUUUUAAACUCGUAACUAUACCACCCUUCUCACUGGUGUAUUUUGAAAACCACCACAGUCCGAUGUCCUGUGCCAUGUCUGUCAUUCCUGU	0.306
UACUGAAGUAUGCCAUGAUGUUUGUUGUUUUCUUUCAUCGUAAGCCUGUAAGCAGGAAAAAUACGUCAAAUCAGAUAGAAUAGAGCAUUUACCAGUGGUCGAUGGCCUGG	0.649
AUAUACAGUUGAGUUGGGAGUAAACUGAAAAGACAAAUGUGUUGAAGGCUAUGCCAGGGAAUCUGGCUCAAAGCCUAACACAGAAGCAGCUUCAUCCCAGUGACGAUGCU	0.331

Study 3 — method: DHFR PCA, dose-response; medium: yeast; setting: Hill fit, not affinity; with: (+)-ABA, dose series; direction: lower = more sensitive
Target: ABI1, truncated, D143A, DHFR fusion (Arabidopsis thaliana, UniProt P49597)
Starting sequence: PYL1, truncated, DHFR fusion (Arabidopsis thaliana, UniProt Q8VZS8); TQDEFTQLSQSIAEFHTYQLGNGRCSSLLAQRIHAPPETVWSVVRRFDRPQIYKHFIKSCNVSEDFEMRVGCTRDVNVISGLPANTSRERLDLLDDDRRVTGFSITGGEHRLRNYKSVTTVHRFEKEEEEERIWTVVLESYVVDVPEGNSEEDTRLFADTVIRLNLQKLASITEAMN
Change	ABA EC50
N22P	4.04 µM
E131K	4.49 µM
R69K	1.7 µM
T106V	0.749 µM
N85S	1.25 µM
V78W	3.23 µM
N77H	2.19 µM

Study 4 — method: RNA Bind-n-Seq; molecule type: RNA; medium: in vitro; concentration: 100 nM; baseline: input RNA pool; direction: higher = stronger binding
Target: RING finger protein unkempt homolog, zinc fingers 1-6, SBP tag (UNK, Homo sapiens, UniProt Q9C0B0, residues 30-357)
Sequence of UniProt Q9C0B0 (30-357, looked up): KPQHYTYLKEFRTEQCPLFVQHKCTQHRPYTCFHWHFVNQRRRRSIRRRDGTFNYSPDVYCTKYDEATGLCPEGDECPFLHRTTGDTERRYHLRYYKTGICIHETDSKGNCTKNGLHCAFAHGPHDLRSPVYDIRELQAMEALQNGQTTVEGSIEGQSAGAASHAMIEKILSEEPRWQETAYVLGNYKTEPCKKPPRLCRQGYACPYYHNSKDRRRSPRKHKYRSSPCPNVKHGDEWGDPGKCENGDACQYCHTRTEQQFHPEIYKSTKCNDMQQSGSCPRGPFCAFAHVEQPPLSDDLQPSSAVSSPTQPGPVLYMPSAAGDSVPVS
Setting: RNA with constant flanks, vertebrate orthologous sites, ends assumed
Constant ends, left off below: GGGAGUUCUACAGUCCGACGAUC … CAACAGAGGAUUGAGCAUCA
Strand	bound/input enrichment
UUGACCUUGUUUCUUUAUCUUCCUUUUUAUUUUCUUUCUUUUUCUUCGCUUUUUUUCUUUCUAGUGUUGUUACCCACGCCAUUUUACGUCUCCUUCACUGAAGGGCUAGAGUUUUAACUU	3.21 ratio
UCUUGGAUGACUUUGGACGUCCGUACUGCUUAGGUGCGGUGACUUCGUUCGGCCUUGCAGACUUGUUCUCGUCUCAGCCCAAGGCCUCUCCCGCAACCAUGCUCCGCCUGAUCGUCAGUC	0.381 ratio
UCUUCCUUCCUUUUUUUCUUUUGUUCUUUUUUUUUCUUUUUCUUUUUCUUUUUUUUUGGUAGUUUGUUGUUACCCACGCCAUUUUACGUCUCCUUCACUGAAGGGCUAGAGUUUUAACUU	3.09 ratio
UUAUGUGAUUUUAUUUAUUGAGGAUAGUUGUGUGCUAAGAACUGUGUUAGAUUUAAAAAUUAGAGGAUUAAUUCCUCUUUGUUGUGUUGCUUUCAUUAUUAAAAAUAAAUAGAACUUUGU	1.35 ratio
CUCUAUGGGCCUCGCAGAGUUGAAAUAAUGGAAGAGGAAAGUGAACAGUAAUCUUCAUUUUAGUAUUUAUGUUUAGGUGUGAAAUAAAUGUUAUUUGUUGAUCAUUUCUAUAAUCCAGAG	0.868 ratio
UCUCAUUUUGUAUGUCAAAAAAAAAAGGGUUUGAAUUUUUAAACAAUUGCUAGUUUUAAUUAGCUCUGCCCUCAUGAAAAUAUAUUAUAGUCACCACAAACAUAUCUGUCUGAAUUACUU	0.493 ratio
UAGUACUUAAGCCAACAACAGUUCUAAAAUGCUAUUUAUUUGUGUCUGUAAGAUUGUACAUAUACUACCAACCUCAUACUGUUGUGGAUUAUUUUCUCACAAAUUUGGGUUUGUUUUUUU	0.482 ratio
UGUACUUGGAAAAAAAUCAUCUUUAGUUUUAAACUAGUCAUGGUGAUACCUAUUCUGUGCUAGUGGAAUCAUUUGCUCUUACCUUUUAAACUAUCUCCUCUGUCUGAUAUCUGAAACCAG	0.664 ratio
CAUUGUACCCUGCUGUAUAAUAAACAAUCUUAGACAUUUAUCAACUGUUGAUACAAAUGUUAGUCCCUAACCACUUUUUAUAUGUUUUAAAUUUUUGAAAUUCAAGUGUACCUGCCAUAA	2.07 ratio
CUCCACUCCCCCUGGGUGCCUGACUCCAGUGAAGCACUCACCAGUGCUGCAAGGGGUCCAGAGUAUUUUUUUGCUGCUUCAGUCCCCAAUGCCUUCCAGCAGAAGUGGCAGUAGACUGUU	0.358 ratio
CAGCCAACUCACUUAUAGGAAGAGCUGCACACAUUGCUGUUCUGGAUUCAGAGAUAUUUUUGGAAAAAUUCUUUAUGGUUGCUGGCCUUAAAUAUUUUCAGUAAGAGGAGUCAGCAUGAA	0.445 ratio

Study 5 — target: CCNE2, cyclin fold, Cln2 fusion (human); method: yeast growth competition, sequencing; medium: yeast; setting: strong parent motif; baseline: not given; direction: higher = stronger binding
Starting sequence: DTL docking peptide (human); PSSMRKICTYFHR
Change	normalised enrichment score
R5A	0.921
Y10A	1.31
S2A	0.844
S3A	1.23
R13A	0.893
P1A	0.579
F11A	0.535

Study 6 — target: JUNB, bZIP domain (human); method: DHFR protein complementation; medium: yeast; baseline: wild-type JUN-FOS pair; direction: higher = stronger binding
Setting: single substitutions, most at no-binding floor
Starting sequence: JUN, bZIP domain (human); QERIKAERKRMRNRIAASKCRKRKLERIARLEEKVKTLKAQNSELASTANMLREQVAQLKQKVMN; partner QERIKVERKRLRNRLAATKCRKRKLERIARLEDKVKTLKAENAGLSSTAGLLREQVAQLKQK
Change	binding fitness [natural log]
T48C	-1.25
L52G	-1.52
A29I	-1.31
L45I	-1.49
Q41N	-1.39
Q41R	-1.24
A57C	-1.39
R30G	-1.26
E33M	-1.26
V56H	-1.24
Q41I	-1.11
S43L	-0.972
S47I	-1.09
L38C	-1.48
Q58S	-1.09
I28N	-1.59
A40C	-1.32
A49N	-0.778
T48Q	-0.922
S47A	-0.878
K39I	-1.24
A57E	-0.848
L52T	-1.52

For quick reference, copied from above (study 4):
Strand	bound/input enrichment
UUGACCUUGUUUCUUUAUCUUCCUUUUUAUUUUCUUUCUUUUUCUUCGCUUUUUUUCUUUCUAGUGUUGUUACCCACGCCAUUUUACGUCUCCUUCACUGAAGGGCUAGAGUUUUAACUU	3.21 ratio
UCUUGGAUGACUUUGGACGUCCGUACUGCUUAGGUGCGGUGACUUCGUUCGGCCUUGCAGACUUGUUCUCGUCUCAGCCCAAGGCCUCUCCCGCAACCAUGCUCCGCCUGAUCGUCAGUC	0.381 ratio
UCUUCCUUCCUUUUUUUCUUUUGUUCUUUUUUUUUCUUUUUCUUUUUCUUUUUUUUUGGUAGUUUGUUGUUACCCACGCCAUUUUACGUCUCCUUCACUGAAGGGCUAGAGUUUUAACUU	3.09 ratio
UUAUGUGAUUUUAUUUAUUGAGGAUAGUUGUGUGCUAAGAACUGUGUUAGAUUUAAAAAUUAGAGGAUUAAUUCCUCUUUGUUGUGUUGCUUUCAUUAUUAAAAAUAAAUAGAACUUUGU	1.35 ratio
CUCUAUGGGCCUCGCAGAGUUGAAAUAAUGGAAGAGGAAAGUGAACAGUAAUCUUCAUUUUAGUAUUUAUGUUUAGGUGUGAAAUAAAUGUUAUUUGUUGAUCAUUUCUAUAAUCCAGAG	0.868 ratio
UCUCAUUUUGUAUGUCAAAAAAAAAAGGGUUUGAAUUUUUAAACAAUUGCUAGUUUUAAUUAGCUCUGCCCUCAUGAAAAUAUAUUAUAGUCACCACAAACAUAUCUGUCUGAAUUACUU	0.493 ratio
UAGUACUUAAGCCAACAACAGUUCUAAAAUGCUAUUUAUUUGUGUCUGUAAGAUUGUACAUAUACUACCAACCUCAUACUGUUGUGGAUUAUUUUCUCACAAAUUUGGGUUUGUUUUUUU	0.482 ratio
UGUACUUGGAAAAAAAUCAUCUUUAGUUUUAAACUAGUCAUGGUGAUACCUAUUCUGUGCUAGUGGAAUCAUUUGCUCUUACCUUUUAAACUAUCUCCUCUGUCUGAUAUCUGAAACCAG	0.664 ratio
